Measurements of several laboratories.
Parts stem from different laboratories: compare values within a part only.

Series 1
Target: Centromere-binding protein 1, full length, N-terminal tag (CBF1, Saccharomyces cerevisiae, UniProt P17106, residues 1-351)
Chain of UniProt P17106 (whole entry, looked up): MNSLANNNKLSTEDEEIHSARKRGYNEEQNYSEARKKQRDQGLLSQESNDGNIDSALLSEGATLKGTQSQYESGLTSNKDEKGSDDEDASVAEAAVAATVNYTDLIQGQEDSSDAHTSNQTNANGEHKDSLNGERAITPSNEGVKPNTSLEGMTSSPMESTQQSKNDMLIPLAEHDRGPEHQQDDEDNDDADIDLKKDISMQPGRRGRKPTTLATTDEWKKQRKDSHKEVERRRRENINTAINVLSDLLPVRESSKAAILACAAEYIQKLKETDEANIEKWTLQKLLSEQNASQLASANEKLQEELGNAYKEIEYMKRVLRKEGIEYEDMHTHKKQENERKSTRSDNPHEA
Method: protein-binding microarray
Form: double-stranded DNA, one strand shown
Matrix: in vitro
Concentration: 0.8 µM
Notes: whole 60-bp probe, no competitor
Reading: higher = stronger binding
Constant ends, left off below: … GTCTTGATTCGCTTGACGCTGCTG
Strand	fluorescence intensity [a.u.]
CTAAAAAAAAATTACCGCGTGAACTATGTCATATTC	551
CCTAACTACTATAAACACCACCCATAGCTTCGTACA	535
CCTAACTACTATAGGCGTGTGCAATAGCTTCGTACA	511
CTATGAAATTAGTGGCACGGTCTTTTATTCCTGTTC	610
CTAAGACTTATATATCACGTAAAATTTGTCTCTTTC	526
CCTAACTACTATAGTCATGCTCTATAGCTTCGTACA	613
GAAAGAAATGACGATAAGGTGAGGAGGATAAAATAG	542
GAATTGTGGTTAATGCACATGTAAAGTTGTGAATAG	642
CTATGTTTTTATTTCTACGTGATTTTTTTCTTGTTC	654
GAACCGCAACTGCATCACCCGGGCGACCAATCATAG	497
GAATTGGTTCTCCATCACGTGATAAACATTTCTTAG	35100
CTATATTATATTGGTCATGATTAATATGACCAATTC	590
GAACAAAACAAGCGTGTCATGTGAGCTTTTTTGTAG	2570
CTAGAACGCAAAGAGTGTGTGACACGAAATTCATTC	804
CTAATCACTTTTGATCACGTGCCTCGGGTGGAATTC	28200
TGTACGAAGCTATGTCATGCTACTATAGTAGTTAGG	564

Series 2
Target: RNA binding protein fox-1 homolog 2, RRM domain, GST-SBP tag (RBFOX2, Homo sapiens, UniProt O43251-10, residues 100-194)
Method: RNA Bind-n-Seq
Form: RNA
Matrix: in vitro
Concentration: 365 nM
Notes: natural RNA segment, single round, ends assumed
Reference: no-protein control
Reading: higher = stronger binding
Constant ends, left off below: GGGAGUUCUACAGUCCGACGAUC … UGGAAUUCUCGGGUGCCAA
Residues (chain): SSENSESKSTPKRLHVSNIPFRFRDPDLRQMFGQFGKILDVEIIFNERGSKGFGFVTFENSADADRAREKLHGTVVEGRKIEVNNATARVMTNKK
Strand	RBNS enrichment (R)
UAUAAAAAAAUUGUUGUUUACUAUGGAAUUAGUAUUACAUUUUGAGGUAAACAAAAGAAUUUGUAUUGCUUGAUAAAUAUUAGCUUGUAAAUUUAAAGUUUCUUUACUUC	0.818
CUUUUUCUGCCCAACAAGUCCAGGGAAGGCCGAGGUCUCAGACUCCUGGGUAGGGGUGGGGGUUUGAGUUGAGGACCAAAGUGCCAUAGCGACAUCCAGAACACAAGCCC	0.354
AAGUGCCUGUAGGCUCCUGGGACUCUGCAGCUAGGUAAAGAGUUCUAAGUUCAUCUGGCCCACGUGCAAAGUCAACAGUAUUGCCUUAAGAUUUCAGUUUUUUUUUUUUU	1
UGGCAAUUGCUUCCUCGAAGACAUGGUGUCACCUUGAAUAGGAAUCUCAGGCAAUCGAGACAGAGAGAGCCAGCAAGGGCUGGUACCUGAGGUCAUAUUUCAGACACCCA	0.389
UUCCAAGGGCUGUUCCAGACAACUGCCAACGUCACUGAGGGCCCUGCCCCAGCGGCCCUGGCCCCAGGCUCUAUUAACCUAAAAUGUAGCUCCCUAGCGCUAACCUAGGA	0.228
UUUUUAAUUCUCUCUUCUCCUCCAGACACAAUGGCACUGCUUAUCUCCGAAAUGGUGUGAUCGUCUCCUCAUUGAGCAGCGGCUGCCACCGCGCUGUGGGUAGUGUGUGA	0.432
UGACAUUGGUGCUCUCUAGAAAUCUCAGCAUGAGCUGCUAUAGAAUACCCUCCCAGCAACAAAACCUAAUCAGUAAGGCCAGCUAGACCCAAUGGCUCAUGCCUGUAAUC	2.78
AGUCUACUAGAGAGGUGCUGCCUUUUCUAAGUCAUAAUGAGGAACAGUCCCUUAAUUUCUUGUGUGCAACUCUGUUUUAUCCUAGAACUAAGAGAGCAUUGGUUUGUUAA	0.379

Series 3
Target: TAR DNA-binding protein 43, full length, His tag (TARDBP, Homo sapiens, UniProt Q13148, residues 1-414)
Method: RNA Bind-n-Seq
Form: RNA
Matrix: in vitro
Concentration: 20 nM
Notes: 6-mer, flanks averaged, single round
With: 150 mM LiCl
Reference: input library
Reading: higher = stronger binding
Strand	6-mer enrichment (R)
UCCAAU	0.896
ACGACC	0.799
CUUUGA	0.945
CCGCUU	0.939
CCUGGU	0.977
CGAGAA	0.992
GCGCCU	0.981
GUACUC	0.857
ACUAUG	0.901
GGAGAU	1.04
GAUUCC	0.872
CUCACG	0.82
AGGCAG	1
AUGAGU	1.19
UUCAAU	0.918
AUCAGC	0.819

Series 4
Target: RING finger protein unkempt homolog, zinc fingers 1-6, SBP tag (UNK, Homo sapiens, UniProt Q9C0B0, residues 30-357)
Chain of UniProt Q9C0B0 (30-357, looked up): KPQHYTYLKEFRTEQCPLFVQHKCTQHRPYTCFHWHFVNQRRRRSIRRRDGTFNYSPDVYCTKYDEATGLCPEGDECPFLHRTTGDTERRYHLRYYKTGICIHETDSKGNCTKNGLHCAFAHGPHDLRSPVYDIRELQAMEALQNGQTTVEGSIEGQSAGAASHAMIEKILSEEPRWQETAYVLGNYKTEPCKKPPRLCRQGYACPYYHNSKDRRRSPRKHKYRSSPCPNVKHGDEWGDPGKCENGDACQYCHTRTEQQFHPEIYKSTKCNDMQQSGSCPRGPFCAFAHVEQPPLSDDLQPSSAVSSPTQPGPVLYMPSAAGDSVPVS
Method: RNA Bind-n-Seq
Form: RNA
Matrix: in vitro
Concentration: 100 nM
Notes: RNA with constant flanks, vertebrate orthologous sites, ends assumed
Reference: input RNA pool
Reading: higher = stronger binding
Constant ends, left off below: GGGAGUUCUACAGUCCGACGAUC … CAACAGAGGAUUGAGCAUCA
Strand	bound/input enrichment [ratio]
AAUUGAACAAAAAUGUUUCCACUGGCUUUUGCCUGUAAGAAAAAAAUGUACCCGAGCACAUAGAGCUUUUUAAUAGCACUAACCAAUGCCUUUUUAGAUGUAUUUUUGAUGUAUAUAUCU	0.538
UCCAGCCUCAACUGACUGUUUCACAGCAUUCCUUACACAGCUAUUUAACAAGUACAAGUGGAGUUAACUUUCAGGAUACAUCUAGGCACUCAGCGUUAUCCUGCAGUCCAGUUGGAGAUG	0.218
UAAGAUCUGGAUUGUGGAGCCAAACCAAGGGGUUUGAAAGUAUAGAGGUUUGUAAAGUUCCAGCCCCGCAGCUGCACAGCACACCACCACUGCUGCUGUGCUCAGGUGUUUAUUGCAGUC	0.362
CAUUGAACCCUGCUGUAUAAUAAACUAUCUUAGACAUUUAUCAACUGUUGAUACAAAUGUUAGUCCCUAACCACUUUUUAUAUGUUUUAAAUUUUUGAAAUUCAAGUGUACCUGCCAUAA	2.25
GCUUCUGUGUAGCUAUUAGAGCAGGGUCUUCCUCUCCUCCCAGGAAGAAAAAUGUGCAUUUAGAUUCCUCAUACAUUUGCUUGUAUGGCUCUGUUUUUGUUUUCUAUUUUUACAUUUCCU	0.579
GACGCUUUGAUGUAAAAUUUGAAAUAAAGAGCAGCUGAUCACAAGCACAAUUUCCCCCCUAGCCAUUUAAAAAAGUUAAAAAUAUAAAAAACAAAAAACUACUAGUCUUGAACAAACUGU	2.62
UUAAGGUUUUUUUUUUUUAAUUUAAUUUUUCCUUUUGGGGGUAAAGUUUGCUCUACCAAAUAGUGAUUGUAACAAAUUUUGAUCUGUUUUGGAUGUUGCUAUAGUGACAUGCAGUUAUAU	0.739
GUGCAAGGAGAUUAUUCCAACUAGUGAAUUUAUUAACAGUAAGUUGACAGCAAAAGCAAAUAGGCAGCUUCAAGAUCCUUUAGUAAUCAUGACAGGAAAUAUCCCAACGUGGCUUACUGA	0.833

For quick reference, copied from above (series 1):
Strand	fluorescence intensity [a.u.]
CTAGAACGCAAAGAGTGTGTGACACGAAATTCATTC	804
CTATATTATATTGGTCATGATTAATATGACCAATTC	590
CTAAGACTTATATATCACGTAAAATTTGTCTCTTTC	526
CCTAACTACTATAAACACCACCCATAGCTTCGTACA	535
CCTAACTACTATAGTCATGCTCTATAGCTTCGTACA	613
GAATTGTGGTTAATGCACATGTAAAGTTGTGAATAG	642
